Published values of several laboratories.
A part holds a random share of what one study measured. Changes are numbered by the printed parent chain.

Series 1 — method: RNA Bind-n-Seq; molecule type: RNA; sample: in vitro; concentration: 365 nM; reference: no-protein control; reading: higher = stronger binding; measurement: RBNS enrichment (R)
Target: RNA binding protein fox-1 homolog 2, RRM domain, GST-SBP tag (RBFOX2, Homo sapiens, UniProt O43251-10, residues 100-194)
Setting: natural RNA segment, single round, ends assumed
Residues (chain): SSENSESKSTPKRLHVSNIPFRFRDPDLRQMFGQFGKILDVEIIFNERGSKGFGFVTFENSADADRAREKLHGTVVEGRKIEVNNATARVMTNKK
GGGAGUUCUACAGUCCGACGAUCGACCAGGUCCUGAAUGCCCUGAAGCAUCACUUCCCAGCAGAGUCCAGAACAGUAAGUACCACUGGACCCCGAAGCUGUGAGUGCUAUCUUGGGCAGACCAAACUCAGGCCUGGAAUUCUCGGGUGCCAA: 0.346
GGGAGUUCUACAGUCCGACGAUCCUUGGUCCUGGGGACCACCUGCCUGGGGCAGUGGACAUCCUAACUAAACAGGCUUCUGGCAGUAGCUUUGGUUCCUAUCCCAUCGAAAUUCCCCAAAGCCCUGGGCCACUUGGAAUUCUCGGGUGCCAA: 0.461
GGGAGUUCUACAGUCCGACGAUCAUGGACGCCUGGGUCUGACCUGACACUGUGCUGGGAGAAUCAGGAUGUGUGUCUAAUGGCGAGCUGACAGCCCUCUGCUGAUAUUUGGCAGAAGGCACCAGACCAGCCCAUGGAAUUCUCGGGUGCCAA: 0.215
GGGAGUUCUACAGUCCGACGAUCAGGUAACAGUGAAAGCUUUUAAGCCUCUGAGCCUCGAGACUGGGGAGAUUGAGUUUAUACCCCCUAGUCUCUCACAUUCAAAUCUAGUAGCCUGUAACCACUUUUAAAUGUGGAAUUCUCGGGUGCCAA: 0.462
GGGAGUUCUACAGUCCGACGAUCCCUUAGAUCCUUUUCUGGGUGAUAAUAGGGAUGUGGGCCUUUUGUGUUUAAGGAGAGUUUCUAAUAGGGCUGUGCUGGUAGAGUGUGAAGGGCCAGAGUCACAGUAUGGCUGGAAUUCUCGGGUGCCAA: 1.01
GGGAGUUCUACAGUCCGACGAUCGGACGUUUUUACCCGUUCCGUAGACUCUGUAACUGUCAGCCCAGUUUGCCUCUGCUGACUCCUGGCAUCACCUCCUGGGACACUUGCUGUCUUUUUUACUUGUCUCAUUUUGGAAUUCUCGGGUGCCAA: 0.97
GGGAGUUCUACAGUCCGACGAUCGCUGCUGCUGCCCGUUCUGUUGGCGGCUGCUGGCCAAGUGUGCACACUUAGCCCUGGUUGAGGUGCAUUGUCUGCUGUCGUCUGUUAAGCAUCUAACCGGAGUGGGAGGGUGGAAUUCUCGGGUGCCAA: 0.511
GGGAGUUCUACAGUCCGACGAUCGAGAAGUGAGGUUCAGGGAGGGUGCUUAGAGACCAGCCUGUUCUUUGAGCUGUAGAGACUCAUGCUGGAUUCAAACUGAGAACCCUGGAAGGAAGGCCAGGCUAGUUUAGUGGAAUUCUCGGGUGCCAA: 1.64
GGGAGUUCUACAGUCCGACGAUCAAUGCAUAUUCAUGCCAAAACAAGUGGUCCCCAAGCCUGUUUAAAAGGUUAACUUGGCCCGAAAAUAUUGCAGCAGCUUCAUGCAAGAAUUGCCACAGGACACUAUGGCCUGGAAUUCUCGGGUGCCAA: 0.35
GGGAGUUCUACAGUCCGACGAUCCUCUGAACUUCAUUCUCCCCAUAAGCCAAACAAGAACAGACCUCCCCCGCCACCUCCCAGGCACCGUAGUUGUGAGAAUCAGAUGUGAUCAUGUGUGCAGAUGUCCUGUGUGGAAUUCUCGGGUGCCAA: 1.84
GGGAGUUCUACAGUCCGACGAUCAAUUAAUAACGAGCCUAGUUUAGGAAAAAGCUGCUUAAAACUGUGGCUCUAAGAGAGUAAUCAUAAAAUACCUUAGAUAAAAUUGCACUAUGGAAUUUUCAUUGAGUAUGUGGAAUUCUCGGGUGCCAA: 0.713
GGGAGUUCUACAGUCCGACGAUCCAAAAAUCAGCUUUUGCAGGUCUUUAUUUCUUCUGUAAAACAGUAGGUAACUUUUCCUAGGUUUCACUCUUUUUAGUGUACUAGAUCCAGAAACUUAGUGUAAUGCCCUGUGGAAUUCUCGGGUGCCAA: 0.286

Series 2 — method: protein-binding microarray; molecule type: double-stranded DNA, one strand shown; sample: in vitro; concentration: 940 nM top; setting: 60-bp whole probe; added: salmon DNA 0.4 mg/ml; reference: random background probes; reading: higher = stronger binding; measurement: fitted relative affinity; all sequences stand within: GCCTAGCAC … GTCTTGATTCGCTTGACGCTGCTG
Target: Interferon regulatory factor 5, full length, phosphomimetic (IRF5, Homo sapiens, UniProt Q13568-2, residues 1-514, S451D/S453D/S456D/S462D)
TGTTATTAAATTTTCACGGTGTGCTAG: 0.0974 z-score
TCTCTTTCCTTCTTGATGCAGTGCTAG: 3.46 z-score
CTGAATGTCCTCCTCTCTCTGTGCTAG: 0.232 z-score
GACTGTTTCGACTTTCGGGACGTGCTA: 3.71 z-score
TTAGATTTCGGGTTTCGATTGGTGCTA: 5.44 z-score
GACGGTTCCGTTTTCCTGACGTGCTAG: 1.71 z-score
ATATCTTATCCTATCAGTTTGTGCTAG: 0.102 z-score
TTCCTTTACTTTCTTTTTTTGTGCTAG: 3.28 z-score
CAGGTTTCTGATGGGCCTAGGTGCTAG: 3.16 z-score
TTAGATATCAGTCTCGAATAGTGCTAG: 1.06 z-score
AACTGCATCCCAGGAGCTGGGTGCTAG: -0.375 z-score
GAAGATTTCAGACTGGAGACGTGCTAG: -0.566 z-score
GACGGTATCTGTTTCGGGACGTGCTAG: 3.82 z-score
TTAGGCATCGACACTGGGTTAGTGCTA: -0.408 z-score
GGTACTCACCTCCAGGCTGAGTGCTAG: 0.194 z-score
TTAGTTATCGGGTTTCGGTTAGTGCTA: 6.49 z-score
GAATGTCCTCCTCTCTCTTTGTGCTAG: 0.399 z-score
TCATTTTTCTAACCCATACTGTGCTAG: 1.42 z-score
TCACTTCTGGTGCTCATACTGTGCTAG: 0.759 z-score
TCATATATCTGAACCGCACTGTGCTAG: 0.543 z-score
CTCTTTGTTTCACTTCCTGGTGTGCTA: 3.37 z-score
TTAGGTTTCCGTTTCCTTTAGTGCTAG: 3.07 z-score
TTAGGTATCTACACTGGGTTAGTGCTA: 0.608 z-score
TATCAGTAGGTAAGGAAAAGGTGCTAG: 0.331 z-score
GACGAACTGAGTCCCGAGACGTGCTAG: -0.21 z-score

Series 3 — method: DHFR PCA, deep sequencing; sample: yeast; added: (+)-ABA 0.39 µM; reference: wild-type fitted maximum; reading: higher = stronger binding; measurement: relative binding score
Target: ABI1, truncated, D143A, DHFR fusion (Arabidopsis thaliana)
Setting: methotrexate growth selection, single substitutions
Parent: PYL1, truncated, DHFR fusion (Arabidopsis thaliana); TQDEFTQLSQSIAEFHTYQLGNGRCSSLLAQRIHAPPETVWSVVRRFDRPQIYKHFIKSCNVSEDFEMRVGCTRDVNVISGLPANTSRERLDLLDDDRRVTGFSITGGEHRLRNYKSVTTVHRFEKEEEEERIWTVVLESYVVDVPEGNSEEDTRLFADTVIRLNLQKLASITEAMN
I105N: -5.39%
Q7Y: 43.1%
S42W: 4.38%
N114A: -5.15%
S59D: 40.7%
R46I: -9.49%
R113G: 12.2%
D96I: -8.06%
G148K: -5.26%
V137F: 2.2%
I172P: -8.13%
F103M: -3.59%
C60L: 7.31%
V121P: -0.667%
E152P: -16%
V40S: -2.28%
R113V: 37.5%
I172G: -20%
W41G: -3.73%
Y115I: -4.76%
W41L: 5.4%
N85K: 72.5%
E89D: -1.94%
K126I: 43.3%
H34C: 54.7%

Series 4 — method: universal PBM; molecule type: double-stranded DNA, one strand shown; sample: in vitro; concentration: 600 nM; reading: higher = stronger binding; measurement: E-score
Target: Sal-like protein 4, full length isoform A (SALL4, Homo sapiens, UniProt Q9UJQ4, residues 1-1053)
Chain of UniProt Q9UJQ4 (whole entry, looked up): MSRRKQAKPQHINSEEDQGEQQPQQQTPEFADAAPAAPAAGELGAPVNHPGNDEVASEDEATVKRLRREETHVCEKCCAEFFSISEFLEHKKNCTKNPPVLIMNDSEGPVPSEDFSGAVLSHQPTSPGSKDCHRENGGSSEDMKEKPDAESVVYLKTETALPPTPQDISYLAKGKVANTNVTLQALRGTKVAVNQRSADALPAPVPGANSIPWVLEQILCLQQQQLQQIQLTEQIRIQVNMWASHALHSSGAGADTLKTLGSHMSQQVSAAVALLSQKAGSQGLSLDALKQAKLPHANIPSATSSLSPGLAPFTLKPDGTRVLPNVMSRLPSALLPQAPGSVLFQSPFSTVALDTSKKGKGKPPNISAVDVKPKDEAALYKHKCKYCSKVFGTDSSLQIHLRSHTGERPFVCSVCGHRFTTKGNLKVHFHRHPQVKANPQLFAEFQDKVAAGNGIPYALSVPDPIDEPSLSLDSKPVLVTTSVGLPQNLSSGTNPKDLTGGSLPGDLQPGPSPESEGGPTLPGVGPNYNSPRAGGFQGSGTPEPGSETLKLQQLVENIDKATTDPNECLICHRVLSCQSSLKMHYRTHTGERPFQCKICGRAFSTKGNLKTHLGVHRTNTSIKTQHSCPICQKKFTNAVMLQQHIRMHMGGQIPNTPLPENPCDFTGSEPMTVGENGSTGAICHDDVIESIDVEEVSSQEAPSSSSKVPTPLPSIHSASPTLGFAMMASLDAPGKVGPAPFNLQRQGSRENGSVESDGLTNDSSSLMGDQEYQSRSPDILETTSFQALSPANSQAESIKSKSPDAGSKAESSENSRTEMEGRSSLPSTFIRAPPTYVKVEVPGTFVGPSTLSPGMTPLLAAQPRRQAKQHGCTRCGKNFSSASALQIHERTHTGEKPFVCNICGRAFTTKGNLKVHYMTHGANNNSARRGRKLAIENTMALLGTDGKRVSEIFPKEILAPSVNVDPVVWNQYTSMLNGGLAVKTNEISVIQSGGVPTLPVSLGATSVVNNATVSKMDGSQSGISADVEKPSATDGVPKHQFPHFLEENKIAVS
Setting: 8-mer, flanks averaged, mean of replicates
ATGTAAGG: 0.224
CCAGCTAG: -0.136
CTCACGCA: -0.0166
GAGTACAC: -0.0897
CGCACGCA: -0.254
GCTCTCCC: -0.166
AAGAACCA: 0.0895
GATGCATC: 0.008
CCACCACC: -0.249
CCATCTAA: 0.00133
TAACGCCA: 0.036
ACGAACAC: 0.0415
AAGGGCTC: -0.262
GATACTAC: 0.0617
AAGGCACC: -0.224
CACTGTCA: 0.055
TACCTCCA: 3.5e-05
AGACTAGC: -0.239
GGTCCATA: 0.0171
AGGAGAGG: -0.0449
CTCTACGC: -0.14
CTAGCGCC: -0.271
GACAATGA: -0.0192
GCCGTCGC: -0.308
ACGGCGAA: -0.0379

Series 5 — target: CCNB2, cyclin fold, Cln2 fusion (human); method: yeast growth competition, sequencing; sample: yeast; setting: weak parent motif; reference: not given; reading: higher = stronger binding; measurement: normalised enrichment score
Parent: AKAP12 docking peptide (human); GSPLKKLFTSTGL
GSPLRKLFTSTGL [K5R]: -0.0564
GSPLAKAFTSTGL [K5A L7A]: -0.336
GSPLKKAFTSTGL [L7A]: -0.381
GSPLKKLFTATGL [S10A]: 0.408
GSPLKKLFTSTAL [G12A]: -0.843
GAPLKKLFTSTGL [S2A]: 0.371
GSPLKALFTSTGL [K6A]: -0.0894
GSPLKKLFTSTGA [L13A]: 0.00241
GSPLKKLFASTGL [T9A]: 0.0413
GSPLRKLLTSTGL [K5R F8L]: 0.293

Series 6 — method: protein binding microarray; molecule type: double-stranded DNA, one strand shown; sample: in vitro; concentration: not given; reference: not given; reading: higher = stronger binding; measurement: E-score
Target: Histone acetyltransferase KAT6A, winged helix 2, GST fusion (KAT6A, Homo sapiens, UniProt Q92794, residues 85-181)
Setting: 8-mer, flanks averaged, mean of 2 arrays, mostly near background
Residues (chain): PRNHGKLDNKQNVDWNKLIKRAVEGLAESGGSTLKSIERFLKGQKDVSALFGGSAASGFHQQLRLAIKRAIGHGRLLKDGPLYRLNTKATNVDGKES
GAGCGGTA: -0.0607
ATTTGTCA: -0.125
ATTCACCC: -0.0721
CGGGACAC: 0.0338
GGTGCCGA: 0.0247
ACAGGACG: -0.192
CCCAACTC: 0.142
ATAAGTGC: -0.142
ACTGGACA: -0.0766
CCGTAGAC: -0.189
AGGGTACT: -0.122
CTATGAGA: -0.0598
CAAAATCA: 0.0569
ATATGAGG: -0.209
TCCAAGAA: 0.139
AGTGGAAC: 0.069
GAAAACTC: 0.2
ATTGAGGG: 0.0755
CAGAAATC: 0.0377
AGGTATAA: -0.054
CCGAGGTA: -0.0538
AAAATCTA: 0.128
CGAAGACC: 0.173

Repeated from above (series 1):
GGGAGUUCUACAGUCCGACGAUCGGACGUUUUUACCCGUUCCGUAGACUCUGUAACUGUCAGCCCAGUUUGCCUCUGCUGACUCCUGGCAUCACCUCCUGGGACACUUGCUGUCUUUUUUACUUGUCUCAUUUUGGAAUUCUCGGGUGCCAA: 0.97
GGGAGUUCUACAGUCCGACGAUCGCUGCUGCUGCCCGUUCUGUUGGCGGCUGCUGGCCAAGUGUGCACACUUAGCCCUGGUUGAGGUGCAUUGUCUGCUGUCGUCUGUUAAGCAUCUAACCGGAGUGGGAGGGUGGAAUUCUCGGGUGCCAA: 0.511
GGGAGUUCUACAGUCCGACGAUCGAGAAGUGAGGUUCAGGGAGGGUGCUUAGAGACCAGCCUGUUCUUUGAGCUGUAGAGACUCAUGCUGGAUUCAAACUGAGAACCCUGGAAGGAAGGCCAGGCUAGUUUAGUGGAAUUCUCGGGUGCCAA: 1.64
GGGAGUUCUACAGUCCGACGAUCAAUGCAUAUUCAUGCCAAAACAAGUGGUCCCCAAGCCUGUUUAAAAGGUUAACUUGGCCCGAAAAUAUUGCAGCAGCUUCAUGCAAGAAUUGCCACAGGACACUAUGGCCUGGAAUUCUCGGGUGCCAA: 0.35
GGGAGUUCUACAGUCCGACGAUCCUCUGAACUUCAUUCUCCCCAUAAGCCAAACAAGAACAGACCUCCCCCGCCACCUCCCAGGCACCGUAGUUGUGAGAAUCAGAUGUGAUCAUGUGUGCAGAUGUCCUGUGUGGAAUUCUCGGGUGCCAA: 1.84
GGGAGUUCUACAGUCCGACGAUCAAUUAAUAACGAGCCUAGUUUAGGAAAAAGCUGCUUAAAACUGUGGCUCUAAGAGAGUAAUCAUAAAAUACCUUAGAUAAAAUUGCACUAUGGAAUUUUCAUUGAGUAUGUGGAAUUCUCGGGUGCCAA: 0.713
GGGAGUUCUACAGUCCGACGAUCCAAAAAUCAGCUUUUGCAGGUCUUUAUUUCUUCUGUAAAACAGUAGGUAACUUUUCCUAGGUUUCACUCUUUUUAGUGUACUAGAUCCAGAAACUUAGUGUAAUGCCCUGUGGAAUUCUCGGGUGCCAA: 0.286
